# Assay results of several laboratories.
# A part holds a random share of what one study measured. Several values in a cell are separate wells, animals, samples, runs or records.
# UniProt Q8N5S9, sequence (whole entry, looked up): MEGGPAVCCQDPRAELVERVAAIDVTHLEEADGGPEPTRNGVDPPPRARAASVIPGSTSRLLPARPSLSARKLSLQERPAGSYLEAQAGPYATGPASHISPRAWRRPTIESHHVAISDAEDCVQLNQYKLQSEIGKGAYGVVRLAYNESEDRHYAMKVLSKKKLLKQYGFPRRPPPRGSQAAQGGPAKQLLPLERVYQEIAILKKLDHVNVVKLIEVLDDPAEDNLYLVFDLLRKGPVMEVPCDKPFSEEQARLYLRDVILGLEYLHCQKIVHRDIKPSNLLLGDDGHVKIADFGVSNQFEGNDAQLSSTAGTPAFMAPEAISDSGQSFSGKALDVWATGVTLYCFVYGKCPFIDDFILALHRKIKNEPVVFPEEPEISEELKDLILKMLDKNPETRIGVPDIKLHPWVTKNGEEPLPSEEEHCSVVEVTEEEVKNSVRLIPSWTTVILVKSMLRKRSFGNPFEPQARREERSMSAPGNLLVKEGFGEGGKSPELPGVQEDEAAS
# UniProt P42685, sequence (whole entry, looked up): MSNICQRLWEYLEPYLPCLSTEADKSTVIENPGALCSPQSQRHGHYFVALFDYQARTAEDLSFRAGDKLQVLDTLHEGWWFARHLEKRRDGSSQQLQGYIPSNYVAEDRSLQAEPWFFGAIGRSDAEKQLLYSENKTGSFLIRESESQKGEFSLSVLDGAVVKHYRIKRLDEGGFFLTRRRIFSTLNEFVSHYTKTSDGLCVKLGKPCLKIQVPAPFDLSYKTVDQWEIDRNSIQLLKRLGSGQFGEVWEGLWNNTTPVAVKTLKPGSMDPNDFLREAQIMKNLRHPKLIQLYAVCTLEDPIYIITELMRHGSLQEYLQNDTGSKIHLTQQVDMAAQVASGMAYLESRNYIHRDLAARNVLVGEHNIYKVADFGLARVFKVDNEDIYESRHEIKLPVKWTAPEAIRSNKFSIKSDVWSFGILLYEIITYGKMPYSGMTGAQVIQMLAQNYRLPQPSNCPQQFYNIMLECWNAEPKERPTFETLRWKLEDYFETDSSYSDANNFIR
# UniProt Q96Q40, sequence (whole entry, looked up): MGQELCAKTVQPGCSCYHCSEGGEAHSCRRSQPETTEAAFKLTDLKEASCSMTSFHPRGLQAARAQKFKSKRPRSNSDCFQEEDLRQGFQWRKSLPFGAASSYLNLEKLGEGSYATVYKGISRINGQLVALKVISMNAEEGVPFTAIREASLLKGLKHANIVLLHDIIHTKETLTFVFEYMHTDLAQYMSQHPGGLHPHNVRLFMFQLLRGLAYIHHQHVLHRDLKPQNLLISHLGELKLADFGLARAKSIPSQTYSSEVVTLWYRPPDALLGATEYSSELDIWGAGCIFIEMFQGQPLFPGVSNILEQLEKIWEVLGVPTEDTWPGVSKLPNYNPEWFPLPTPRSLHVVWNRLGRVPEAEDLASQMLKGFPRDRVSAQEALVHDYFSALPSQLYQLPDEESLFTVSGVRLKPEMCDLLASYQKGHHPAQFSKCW
# UniProt P42338, sequence (whole entry, looked up): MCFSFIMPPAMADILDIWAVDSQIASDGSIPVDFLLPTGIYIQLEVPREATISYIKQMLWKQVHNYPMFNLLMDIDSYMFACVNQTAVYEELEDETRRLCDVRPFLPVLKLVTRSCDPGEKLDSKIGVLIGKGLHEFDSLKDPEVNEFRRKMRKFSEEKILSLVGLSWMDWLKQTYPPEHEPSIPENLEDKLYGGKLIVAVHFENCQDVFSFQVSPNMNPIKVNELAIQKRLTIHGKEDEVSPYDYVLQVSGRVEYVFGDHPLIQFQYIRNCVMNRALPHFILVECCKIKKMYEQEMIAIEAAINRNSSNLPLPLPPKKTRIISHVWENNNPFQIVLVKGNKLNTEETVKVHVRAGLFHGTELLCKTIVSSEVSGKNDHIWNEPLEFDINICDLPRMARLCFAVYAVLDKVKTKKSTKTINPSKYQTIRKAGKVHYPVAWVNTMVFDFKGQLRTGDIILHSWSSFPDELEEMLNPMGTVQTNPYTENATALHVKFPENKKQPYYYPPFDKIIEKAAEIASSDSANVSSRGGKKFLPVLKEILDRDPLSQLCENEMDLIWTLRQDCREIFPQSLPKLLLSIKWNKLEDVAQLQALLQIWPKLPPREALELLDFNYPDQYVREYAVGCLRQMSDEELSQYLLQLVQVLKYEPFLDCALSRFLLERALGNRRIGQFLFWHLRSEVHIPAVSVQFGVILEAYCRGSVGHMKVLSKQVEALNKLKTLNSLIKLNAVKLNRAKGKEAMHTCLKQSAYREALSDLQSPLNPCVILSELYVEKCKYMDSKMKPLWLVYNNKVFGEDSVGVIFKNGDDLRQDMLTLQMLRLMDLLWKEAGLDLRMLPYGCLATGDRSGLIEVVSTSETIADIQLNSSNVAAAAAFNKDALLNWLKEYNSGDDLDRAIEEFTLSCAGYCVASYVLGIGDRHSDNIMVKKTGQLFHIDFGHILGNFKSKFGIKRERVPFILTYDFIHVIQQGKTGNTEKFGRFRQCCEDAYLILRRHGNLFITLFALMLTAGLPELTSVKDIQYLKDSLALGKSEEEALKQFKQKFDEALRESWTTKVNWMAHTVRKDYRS

# Study 1
# SMILES: COc1ccc2[nH]c3c4[nH]c5ccc(OC)cc5c4c4c(c3c2c1)C(=O)NC4=O
# Concentration: 1 µM
target,observed,method,remaining binding
"MAP3K13 (Homo sapiens, UniProt O43283)",binding,competition with immobilised ligand,77%
"FRK (Homo sapiens, UniProt P42685)",binding,competition with immobilised ligand,88%
"MAP2K3 (Homo sapiens, UniProt P46734)",binding,,46%
"MAP4K1 (Homo sapiens, UniProt Q92918)",binding,competition with immobilised ligand,90%
"MAP3K3 (Homo sapiens, UniProt Q99759)",binding,competition with immobilised ligand,59%
"ABL1 (Homo sapiens, UniProt P00519, H396P)",,,34% and 65%
"FGFR2 (Homo sapiens, UniProt P21802)",binding,competition with immobilised ligand,88%
"TESK1 (Homo sapiens, UniProt Q15569)",binding,competition with immobilised ligand,90%

# Study 2
# Structure (SMILES): O=C(N[C@H]1CCCCC/C=C\C2C[C@@]2(C(=O)O)NC(=O)[C@@H]2C[C@@H](Oc3ccncc3)CN2C1=O)OC1CCCC1 (stereo partly shown)
# Method: competition with immobilised ligand
# Concentration: 1 µM
target,observed,remaining binding
"CAMKK1 (Homo sapiens, UniProt Q8N5S9)",binding,96%
"MAPK13 (Homo sapiens, UniProt O15264)",binding,96%
"MET (Homo sapiens, UniProt P08581)",cell-free assay,60%
"LYN (Homo sapiens, UniProt P07948)",binding,87%
"Ribosomal protein S6 kinase alpha-2, C-terminal kinase domain (RPS6KA2, Homo sapiens, UniProt Q15349)",binding,75%
"BLK (Homo sapiens, UniProt P51451)",binding,63%
"CDK15 (Homo sapiens, UniProt Q96Q40)",binding,100%
"CAMKK2 (Homo sapiens, UniProt Q96RR4)",binding,95%
"CILK1 (Homo sapiens, UniProt Q9UPZ9)",binding,85%
"BUB1 (Homo sapiens, UniProt O43683)",binding,100%
"TNNI3K (Homo sapiens, UniProt Q59H18)",binding,100%
"PIK3CB (Homo sapiens, UniProt P42338)",binding,100%
"Tyrosine-protein kinase ABL1, phosphorylated (ABL1, Homo sapiens, UniProt P00519, H396P)",binding,71%
"MAP3K6 (Homo sapiens, UniProt O95382)",binding,100%
"FLT3 (Homo sapiens, UniProt P36888, R834Q)",binding,93%
"Ribosomal protein S6 kinase alpha-1, C-terminal kinase domain (RPS6KA1, Homo sapiens, UniProt Q15418)",binding,82%
"Ribosomal protein S6 kinase alpha-6, C-terminal kinase domain (RPS6KA6, Homo sapiens, UniProt Q9UK32)",binding,86%
"DYRK1A (Homo sapiens, UniProt Q13627)",cell-free assay,84%
"CDK9 (Homo sapiens, UniProt P50750)",binding,91%
"CAMK2A (Homo sapiens, UniProt Q9UQM7)",cell-free assay,95%
"NEK4 (Homo sapiens, UniProt P51957)",binding,79%

# Study 3
# Cell line: mouse MPNST tumor cells
# Method: high-content immunofluorescence imaging
# Item: nuclear SOX9
# Concentration: 10 µM
# Time: 12 h
# Notes: mean of 2 replicates
# Baseline: DMSO control
# Direction: higher = more nuclear SOX9
Compound,nuclear SOX9 intensity
Cn1c([N+](=O)[O-])cnc1COC(N)=O,101 % of DMSO
Cc1ccc(-n2sc(=O)n(Cc3ccc(F)cc3)c2=O)cc1,103 % of DMSO
COc1c(Cl)cc2c([nH]c3cnccc32)c1NC(=O)c1cccnc1C,95.3 % of DMSO
CS(=O)(=O)c1ccc(C2=C(c3ccccc3)C(=O)OC2)cc1,115 % of DMSO
O=C(NCCCCN1CCN(c2cccc(Cl)c2Cl)CC1)c1ccc2c(c1)Cc1ccccc1-2,168 % of DMSO

# Study 4
# Species: human
# Sample: microsomes or S9
# Concentration: 2 µM
# Time: 0.5 h
Compound,remaining compound [%]
CCc1[nH]nc(NCc2cc(Cl)cc(Cl)c2OC)c1C,0.157
CCOc1cc(=O)n2c(c1C(=O)NCc1ccccc1Cl)CCCCC2,0.258
NC(=O)c1ccccc1NC(=O)Cc1ccccc1C(=O)O,86.5
CC(C)N1N=C(c2nc(-c3ccsc3)no2)CCC1=O,27.2
Brc1ccc(-c2c[nH]c(CNc3nncn3-c3ccccc3)n2)cc1,50.9
COn1c(Br)c(Br)c(Br)c1C(=O)Nc1ccc(Br)cc1,23.8
OC1(CNCc2ccccc2)CCc2ccccc21 (stereo not shown),85

# Study 5
# Target: DNA polymerase theta, ATPase domain (POLQ, Homo sapiens, UniProt O75417)
# UniProt O75417, sequence (whole entry, unmodified, looked up): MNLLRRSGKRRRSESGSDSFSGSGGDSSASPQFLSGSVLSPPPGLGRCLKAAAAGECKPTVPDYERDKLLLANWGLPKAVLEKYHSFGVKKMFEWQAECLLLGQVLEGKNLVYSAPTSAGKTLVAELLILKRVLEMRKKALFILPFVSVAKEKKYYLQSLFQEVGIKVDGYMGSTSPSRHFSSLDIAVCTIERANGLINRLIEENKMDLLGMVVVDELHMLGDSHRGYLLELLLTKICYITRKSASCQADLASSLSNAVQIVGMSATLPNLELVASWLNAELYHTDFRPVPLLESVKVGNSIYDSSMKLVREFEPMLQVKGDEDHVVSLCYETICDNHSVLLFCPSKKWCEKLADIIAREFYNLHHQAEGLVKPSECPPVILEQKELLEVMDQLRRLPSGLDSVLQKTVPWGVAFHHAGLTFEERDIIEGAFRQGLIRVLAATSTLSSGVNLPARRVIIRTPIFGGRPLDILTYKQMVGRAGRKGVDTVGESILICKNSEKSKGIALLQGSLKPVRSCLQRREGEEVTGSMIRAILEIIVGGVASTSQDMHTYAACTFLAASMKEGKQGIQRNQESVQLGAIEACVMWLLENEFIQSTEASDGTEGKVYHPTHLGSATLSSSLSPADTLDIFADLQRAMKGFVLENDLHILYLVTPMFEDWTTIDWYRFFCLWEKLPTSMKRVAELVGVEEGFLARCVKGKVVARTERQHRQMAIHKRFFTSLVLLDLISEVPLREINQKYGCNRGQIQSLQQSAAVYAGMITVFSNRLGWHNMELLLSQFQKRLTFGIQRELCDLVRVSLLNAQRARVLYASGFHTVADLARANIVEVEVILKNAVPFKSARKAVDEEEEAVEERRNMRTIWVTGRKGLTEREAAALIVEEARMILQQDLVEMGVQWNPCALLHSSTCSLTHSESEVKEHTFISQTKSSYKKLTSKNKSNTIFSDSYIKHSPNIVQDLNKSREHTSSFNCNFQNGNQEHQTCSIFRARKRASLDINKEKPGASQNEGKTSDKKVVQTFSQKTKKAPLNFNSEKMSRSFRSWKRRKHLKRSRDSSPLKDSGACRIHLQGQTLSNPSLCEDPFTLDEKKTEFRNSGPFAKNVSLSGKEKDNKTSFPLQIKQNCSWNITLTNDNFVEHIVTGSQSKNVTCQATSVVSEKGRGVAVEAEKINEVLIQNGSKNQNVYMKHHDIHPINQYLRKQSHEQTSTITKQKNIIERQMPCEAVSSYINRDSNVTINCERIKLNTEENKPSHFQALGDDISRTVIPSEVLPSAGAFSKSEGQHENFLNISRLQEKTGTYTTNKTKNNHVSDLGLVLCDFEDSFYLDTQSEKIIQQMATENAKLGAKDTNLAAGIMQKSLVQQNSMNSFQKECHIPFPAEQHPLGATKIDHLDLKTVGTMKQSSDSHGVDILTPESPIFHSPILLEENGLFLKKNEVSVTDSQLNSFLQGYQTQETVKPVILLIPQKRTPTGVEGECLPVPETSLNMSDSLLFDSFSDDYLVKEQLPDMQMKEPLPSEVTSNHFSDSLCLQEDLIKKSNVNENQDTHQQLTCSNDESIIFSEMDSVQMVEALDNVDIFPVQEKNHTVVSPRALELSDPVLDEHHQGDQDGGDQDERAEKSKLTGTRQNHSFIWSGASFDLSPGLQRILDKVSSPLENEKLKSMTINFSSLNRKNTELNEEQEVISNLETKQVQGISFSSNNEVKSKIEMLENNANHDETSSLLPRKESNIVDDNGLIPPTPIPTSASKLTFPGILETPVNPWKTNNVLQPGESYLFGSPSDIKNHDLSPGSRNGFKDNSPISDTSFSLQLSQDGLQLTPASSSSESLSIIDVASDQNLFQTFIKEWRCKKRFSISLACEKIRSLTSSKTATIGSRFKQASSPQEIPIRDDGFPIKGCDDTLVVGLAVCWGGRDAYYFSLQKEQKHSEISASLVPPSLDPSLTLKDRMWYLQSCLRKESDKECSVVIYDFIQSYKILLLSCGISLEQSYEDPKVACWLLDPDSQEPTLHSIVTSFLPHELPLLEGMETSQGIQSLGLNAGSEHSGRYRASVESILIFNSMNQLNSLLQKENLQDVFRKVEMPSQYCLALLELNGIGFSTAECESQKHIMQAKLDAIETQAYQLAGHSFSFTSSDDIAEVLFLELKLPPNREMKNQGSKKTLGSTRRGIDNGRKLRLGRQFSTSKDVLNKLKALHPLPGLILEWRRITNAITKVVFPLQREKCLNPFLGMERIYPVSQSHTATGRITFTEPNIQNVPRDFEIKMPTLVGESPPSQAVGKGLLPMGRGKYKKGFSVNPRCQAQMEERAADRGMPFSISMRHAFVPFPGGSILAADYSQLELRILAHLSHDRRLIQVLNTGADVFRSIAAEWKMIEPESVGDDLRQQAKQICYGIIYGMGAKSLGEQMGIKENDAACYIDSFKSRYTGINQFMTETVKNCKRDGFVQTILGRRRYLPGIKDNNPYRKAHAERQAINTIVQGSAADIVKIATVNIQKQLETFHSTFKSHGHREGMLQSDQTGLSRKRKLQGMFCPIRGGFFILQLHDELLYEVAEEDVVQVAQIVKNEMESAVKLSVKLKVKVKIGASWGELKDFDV
# Observed: enzyme activity
# Action: inhibitor
# Concentration: 77 µM
# Baseline: untreated
Structure (SMILES),remaining activity
C[C@@H]1CN(c2c(F)c(N)c3c(=O)c(C(=O)O)cn(C4CC4)c3c2F)C[C@H](C)N1,99.7%
CCc1cc(Nc2nccc(-c3c(-c4ccc(OC)c(C(=O)Nc5c(F)cccc5F)c4)nc4ccccn34)n2)c(OC)cc1N1CCC(N2CCN(S(C)(=O)=O)CC2)CC1,101%
CC(=O)NCCc1c[nH]c2ccc(O)cc12,91.1%
CN(CCOc1ccc(CC2SC(=O)NC2=O)cc1)c1ccccn1 (stereo not shown),98.1%
Cc1[nH]nc2ccc(-c3cncc(OC[C@@H](N)Cc4ccccc4)c3)cc12,109%

# For quick reference, copied from above (study 1):
target,observed,method,remaining binding
"MAP4K1 (Homo sapiens, UniProt Q92918)",binding,competition with immobilised ligand,90%
"MAP3K13 (Homo sapiens, UniProt O43283)",binding,competition with immobilised ligand,77%
"FRK (Homo sapiens, UniProt P42685)",binding,competition with immobilised ligand,88%
"ABL1 (Homo sapiens, UniProt P00519, H396P)",,,34% and 65%
"MAP3K3 (Homo sapiens, UniProt Q99759)",binding,competition with immobilised ligand,59%
"TESK1 (Homo sapiens, UniProt Q15569)",binding,competition with immobilised ligand,90%
"FGFR2 (Homo sapiens, UniProt P21802)",binding,competition with immobilised ligand,88%
"MAP2K3 (Homo sapiens, UniProt P46734)",binding,,46%
